Results from different studies.
Every numbered part comes from another study and shows a few of its results, in no order.

Block 1
Target: RING finger protein unkempt homolog, zinc fingers 1-6, SBP tag (UNK, Homo sapiens, UniProt Q9C0B0, residues 30-357)
Chain of UniProt Q9C0B0 (30-357, looked up): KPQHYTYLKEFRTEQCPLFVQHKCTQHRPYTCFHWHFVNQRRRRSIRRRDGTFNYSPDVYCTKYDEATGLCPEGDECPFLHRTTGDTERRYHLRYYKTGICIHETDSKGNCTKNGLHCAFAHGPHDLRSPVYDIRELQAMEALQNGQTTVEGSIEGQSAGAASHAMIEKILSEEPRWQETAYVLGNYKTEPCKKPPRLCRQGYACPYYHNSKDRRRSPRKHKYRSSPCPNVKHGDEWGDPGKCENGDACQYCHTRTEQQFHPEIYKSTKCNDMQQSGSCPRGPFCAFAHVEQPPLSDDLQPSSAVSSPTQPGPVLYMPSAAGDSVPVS
Technique: RNA Bind-n-Seq
Form: RNA
Medium: in vitro
Tested at: 100 nM
Setting: RNA with constant flanks, vertebrate orthologous sites, ends assumed
Reference: input RNA pool
Reading: higher = stronger binding
Quantity: bound/input enrichment
Constant ends, left off below: GGGAGUUCUACAGUCCGACGAUC … CAACAGAGGAUUGAGCAUCA
CAAUUCCAUGGUCGAAGGCUCUGAGCUCAAGAAGGUCCGCUCCAAUUCUAGAAUUUACCACCGGUAUUUUCUCUUGGACGCCGACAUGCAGUCCCUGCGAUGGGAACCCUCCAAGAAGGA: 0.115 ratio
AAGUCCCCUGGGCCGGGACAGAUUUUUUUUUAAUGUCUUGAAACUUAAACUCUGUGCUUAGAGGAGUCUGUAACCUUUUUGUCUUUUUUUUUUUUUUUUUUUUUUAAAGUAACCUCCACC: 2.65 ratio
AAUCAGUAGGAUUACAAAAUACUAAAGUUGCAGUUGAAAGGAUAUCCAAGUAUGUGUUGGUAGUUACAAAAGAAUUAUAGCUGUUAUUGCCUUGUAUUUAUAGCCCUUGUUUCAGGUUUC: 1.03 ratio
CUCUAUGGGCCCCGCAGAGUUGAAAUAAUGGAAGAGGAAAGUGAACAGUAAUCUUCAUUUUAGUAUUUAUGUUUAGGUGUGAAAUAAAUGUUAUUUGUUGAUCAUUUCUAUAAUCCAGAG: 0.751 ratio
GCCUCCAACAGGCACAUUCAGGGAGAGAUAGGCUUCAGGGAACAUAAAUUUAUUUAAUAGUAGUGAUCAUGAAGUAUAAAUUUGAUAUAAUUGAAUAAUUUGUGAGGGGUGAUGAUAAAU: 0.958 ratio
GUUGGGUCAUGACCCCUAUAGGUUAGGUCAUGAUGCUUACAGGUUAGGGCAGGACCCGUAUAGAUUAGGCCAUGAUCCCUAUAGACUAACUCCUGAUCCCUAUAGGAUGUCACCUAGACC: 0.756 ratio
UUUUAUUGAUCAGGUCUGUAAAUGUGUACUAGAAAAAUCAGAGUUUAUUUAUAAAUAGGAUAGAUUAUUUAAAGAGGUUUUCCUCCCCGAUAUCAUGGUAUGCAUAAUUCUGUGUGUUAC: 0.66 ratio
UGCAGGCACAACUGACUAGUUCACAGCAUUCCUUACAUAGUUAUUUAUCAAAUACAAGUGGAGUUAAUUUUCAGGAUACAUCCAGACAGUCAGCAUUGUCCUGCAGUCCAGUUGGAGAUG: 0.948 ratio

Block 2
Target: Interferon regulatory factor 5, full length, phosphomimetic (IRF5, Homo sapiens, UniProt Q13568-2, residues 1-514, S451D/S453D/S456D/S462D)
Technique: protein-binding microarray
Form: double-stranded DNA, one strand shown
Medium: in vitro
Tested at: 940 nM top
Setting: 60-bp whole probe
With: salmon DNA 0.4 mg/ml
Reference: random background probes
Reading: higher = stronger binding
Quantity: fitted relative affinity
Constant ends, left off below: GCCTAGCAC … GTCTTGATTCGCTTGACGCTGCTG
TCAATTTTGGTTTTCTCACTGTGCTAG: 1.5 z-score
TCAATTTTCAGAATTTAACTGTGCTAG: 0.345 z-score
TTAGATCTCAGACTGGAGTAGTGCTAG: -0.386 z-score
GACGAACTGAGTATCGAGAAGTGCTAG: 0.974 z-score
TTAGATTTCAGTATCGATTCGTGCTAG: 5.88 z-score
TCATGTTGCAAATATTGCACTGTGCTA: -0.359 z-score
GGATTTCAGTTTCTCTTTCCGTGCTAG: 5.92 z-score
GACGCTCTCCTTATCCTGACGTGCTAG: 0.871 z-score
GACGATTTAGGGTTTCGAGACGTGCTA: 1.46 z-score
GCCGGTATCGACTATCGGGACGTGCTA: 5.74 z-score
TCATTTTTTTTCCTAATACTGTGCTAG: 1.59 z-score
TCACTTTTTTGTTCCACACTGTGCTAG: 1.43 z-score
CAGCCTCTGAGCAGCTCGGCGTGCTAG: -0.693 z-score
TTGGGTCTCCTTATCCTTTAGTGCTAG: 0.297 z-score
TTAGATTTCAGGACTGGATTAGTGCTA: -0.111 z-score
TTAGCTTTCGGGTATCGGTTAGTGCTA: 5.6 z-score
TTAGGTCTCCTTTTACTTTAGTGCTAG: 0.779 z-score
TTAGGTATCCTCCTGCTTTAGTGCTAG: 0.2 z-score
TCATTTTTTTACTTCGGACTGTGCTAG: 1.07 z-score

Block 3
Target: Fragile X messenger ribonucleoprotein 1, C-terminal low-complexity region (Fmr1, Mus musculus, UniProt P35922)
Technique: RNA Bind-n-Seq
Form: RNA
Medium: in vitro
Tested at: 200 nM
Setting: whole 134-nt RNA, ends assumed
With: 150 mM LiCl
Reference: input library
Reading: higher = stronger binding
Quantity: log2 enrichment
All molecules: 7-deaza-guanosine replaces G
Constant ends, left off below: GGGAGUUCUACAGUCCGACGAUC … UGGAAUUCUCGGGUGUCAAGG
UGCGAUAUGAACGUUCACAAGCAAUGCGUCAUCAAUGUCCCCAGCCUCUGCGGAAUGGAUCACACUGAGAAGAGGGGGCGGAUUUACCUA: -0.771
UGGGAGGUGGAUUUUGUUUAUUUUUUUAGCUCAUGUCCAGGGGUGGGAAUUUUUUUUUAAUAUGUGUCAUGAAUAAAGUUGUUUUUGAAA: -0.0511
UCAAGUCCUGUGCUACACAUCGUAUGUACCGAAUCGGAAAAAAAGGUUUGGUGGAAAGUAUUAUGUUACGCCGUUCGGAUCUGCACUUCC: -1.74
AGUCCUGUGCUACACAUCGUAUGUACCGAAUCGGGGUUUUGGUUUUGGGGUUUUGGGGAAAGUAUUAUGUUACGCCGUUCGGAUCUGCAC: -0.63
UCCUGUGCUACACAUCGUAUGUACCGAAUCGGGGUGGGGAAAAAAAGGGGUUUUUGGGGAAAGUAUUAUGUUACGCCGUUCGGAUCUGCA: -0.586
CCUCAAGUCCUGUGCUACACAUCGUAUGUACCGAAUCGGGGAGGGAGGAGGGGAAAGUAUUAUGUUACGCCGUUCGGAUCUGCACUUCCA: -0.921
UUUUCUCACGAUGCACCUCCCCCUGGCACUAAGAAAAAGCACUUAUCCAUUGAGCAGCUGAAUGCUCGUCGCAGGAAAGUAUGGCUCAGC: -0.0323
GUCCUGUGCUACACAUCGUAUGUACCGAAUCGGGUUUUUUUGGGAAAGGGUUUUUGGGAAAGUAUUAUGUUACGCCGUUCGGAUCUGCAC: -2.32

Further values, each from its own experiment
PPVIIKYIIINRF — binding score (Saccharomyces cerevisiae; peptide binding, yeast competitive growth sequencing; peptide, cyclin-Cln2 fusion strain; concentration not given, library 2; direction not given): 0.761
PhoQ, residues 284 288 289 292 302 303 QWQEDG — fold induction (PhoP, residues 12 14 15 18 19 VQALL (Escherichia coli, UniProt P23836); Sort-seq, item: YFP reporter; E. coli; PhoQ-PhoP variant library, with: 10 µM Mg2+; reference: high Mg2+ state, higher = stronger signaling): 15.6
PSSMRKICTYFHR — binding score (Saccharomyces cerevisiae; peptide binding, yeast competitive growth sequencing; peptide, cyclin-Cln2 fusion strain; concentration not given, library 2; direction not given): 1.37

Some of these lines once more (block 2):
TTAGGTCTCCTTTTACTTTAGTGCTAG: 0.779 z-score
TTAGGTATCCTCCTGCTTTAGTGCTAG: 0.2 z-score
